Measurements of several laboratories.
Each numbered part is a random draw from the data of one study; scales do not carry over between parts.

Study 1 — technique: two-hybrid; reference: out of 4 tests; direction: higher = firmer interaction
Partner: ARF12 500-593 (Arabidopsis thaliana, UniProt Q9XID4)
B1: ARF6 790-935 (Arabidopsis thaliana, UniProt Q9ZTX8); chain SENPQSNTFVKVYKSGSFGRSLDISKFSSYHELRSELARMFGLEGQLEDPVRSGWQLVFVDRENDVLLLGDDPWPEFVSSVWCIKILSPQEVQQMGKRGLELLNSAPSSNNVDKLPSNGNCDDFGNRSDPRNLGNGIASVGGSFNY
B2: ARF8 699-811 (Arabidopsis thaliana, UniProt Q9FGV1); chain NSSNQTKNFVKVYKSGSVGRSLDISRFSSYHELREELGKMFAIEGLLEDPLRSGWQLVFVDKENDILLLGDDPWESFVNNVWYIKILSPEDVHQMGDHGEGSGGLFPQNPTHL
B3: IAA29 (Arabidopsis thaliana, UniProt Q93WC4); chain MELDLGLSLSPHKSSKLGFNFDLNKHCAIEGAASCLGTEKLRFEATFGLGNVEENCYMPKQRLFALNGQPNEEDEDPLESESSIVYDDEEENSEVVGWPPVKTCMIKYGSYHHRHIRNHHHCPYHHRGRRITAMNNNISNPTTATVGSSSSSSISSRSSMYVKVKMDGVAIARKVDIKLFNSYESLTNSLITMFTEYEDCDREDTNYTFTFQGKEGDWLLRGDVTWKIFAESVHRISIIRDRPCAYTRCLF
B4: ARF1 538-665 (Arabidopsis thaliana, UniProt Q8L7G0); chain SRQIRSCTKVHMQGSAVGRAIDLTRSECYEDLFKKLEEMFDIKGELLESTKKWQVVYTDDEDDMMMVGDDPWNEFCGMVRKIFIYTPEEVKKLSPKNKLAVNARMQLKADAEENGNTEGRSSSMAGSR
B5: ARF2 727-859 (Arabidopsis thaliana, UniProt Q94JM3); chain TKTNSSRSCTKVHKQGIALGRSVDLSKFQNYEELVAELDRLFEFNGELMAPKKDWLIVYTDEENDMMLVGDDPWQEFCCMVRKIFIYTKEEVRKMNPGTLSCRSEEEAVVGEGSDAKDAKSASNPSLSSAGNS
B6: ARF11 500-622 (Arabidopsis thaliana, UniProt Q9ZPY6); chain SPKEQKQQTSTRSRIKVQMQGTAVGRAVDLTLLRSYDELIKELEKMFEIEGELSPKDKWAIVFTDDEGDRMLVGDDPWNEFCKMAKKLFIYPSDEVKKMRSKSLLGDKGTIVNLESDQRTVHV
B7: IAA16 (Arabidopsis thaliana, UniProt O24407); chain MINFEATELRLGLPGGNHGGEMAGKNNGKRGFSETVDLKLNLSSTAMDSVSKVDLENMKEKVVKPPAKAQVVGWPPVRSFRKNVMSGQKPTTGDATEGNDKTSGSSGATSSASACATVAYVKVSMDGAPYLRKIDLKLYKTYQDLSNALSKMFSSFTIGNYGPQGMKDFMNESKLIDLLNGSDYVPTYEDKDGDWMLVGDVPWEMFVDSCKRIRIMKGSEAIGLAPRALEKCKNRS
B8: ARF10 575-693 (Arabidopsis thaliana, UniProt Q9SKN5); chain LQGLETGHCKVFMESEDVGRTLDLSVIGSYQELYRKLAEMFHIEERSDLLTHVVYRDANGVIKRIGDEPFSDFMKATKRLTIKMDIGGDNVRKTWITGIRTGENGIDASTKTGPLSIFA
Target sequence (chain): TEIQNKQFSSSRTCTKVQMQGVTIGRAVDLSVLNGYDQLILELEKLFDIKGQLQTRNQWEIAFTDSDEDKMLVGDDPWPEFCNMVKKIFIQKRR
Sequence | positive tests
B1 (ARF6 790-935) | 0
B2 (ARF8 699-811) | 0
B3 (IAA29) | 0
B4 (ARF1 538-665) | 0
B5 (ARF2 727-859) | 3
B6 (ARF11 500-622) | 0
B7 (IAA16) | 0
B8 (ARF10 575-693) | 0

Study 2 — technique: protein-binding microarray; molecule type: hairpin DNA; matrix: in vitro; tested at: not given; reference: not given; direction: higher = stronger binding; all sequences stand within: GAGGCCG … CGGCCTCACACTC
Target: Cyclic AMP-dependent transcription factor ATF-1, full length (ATF1, Homo sapiens, UniProt P18846, residues 1-271)
Notes: whole hairpin DNA, median over replicate spots
Residues (chain): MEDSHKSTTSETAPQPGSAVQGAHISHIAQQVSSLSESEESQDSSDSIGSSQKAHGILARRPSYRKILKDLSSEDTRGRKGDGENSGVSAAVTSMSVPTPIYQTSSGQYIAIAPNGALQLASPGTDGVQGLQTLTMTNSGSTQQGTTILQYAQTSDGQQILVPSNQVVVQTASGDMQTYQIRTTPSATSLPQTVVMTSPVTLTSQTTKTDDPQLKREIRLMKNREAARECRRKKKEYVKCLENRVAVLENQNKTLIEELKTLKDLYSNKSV
Sequence | median fluorescence
GATGAGGTCAGCCTCCTGGCTGACCTCATC | 3580 a.u.
GCTGAAGTCAGCCTCCTGGCTGACTTCAGC | 3140 a.u.
GACGACGTCAGCCTCCTGGCTGACGTCGTC (5mC at 34) | 4680 a.u.
CCTGACGTCAGCCTCCTGGCTGACGTCAGG | 9700 a.u.
GCTCACGTCAGCCTCCTGGCTGACGTGAGC (5mC at 11) | 4640 a.u.
ACGACGTCCTGCCTCCTGGCAGGACGTCGT (5mC at 9 15 16 35) | 3650 a.u.
GCTGACGTCAGCCTCCTGGCTGACGTCAGC (5mC at 9) | 10700 a.u.
GATGACCTCAGCCTCCTGGCTGAGGTCATC (5mC at 14) | 3110 a.u.

Study 3 — technique: DNA-protein interaction ELISA; molecule type: double-stranded DNA, one strand shown; matrix: in vitro, bacterial lysate; tested at: not given; notes: whole dsDNA probe, crude lysate protein; reference: highest signal in screen; direction: higher = stronger binding
Target: Probable WRKY transcription factor 11, DNA-binding domain (WRKY11, Arabidopsis thaliana, UniProt Q9SV15, residues 228-325)
Residues (chain): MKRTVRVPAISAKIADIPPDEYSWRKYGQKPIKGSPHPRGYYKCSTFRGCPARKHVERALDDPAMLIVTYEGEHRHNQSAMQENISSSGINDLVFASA
Sequence | relative absorbance
AAAAAAGGTTTAGCCCATGCCTGTGCAAAA | 16.1 % of maximum
AAAAAATCGCGAACGTACGTCCGCGGAAAA | 12.4 % of maximum
AAAAAATCATTTTATTTTGCCTTTCTAAAA | 13.5 % of maximum
AAAAAACGCATCATAGCTACGCCCCAAAAA | 16.1 % of maximum
AAAAAATTGGTTCTCATTTCTACTTCAAAA | 13.8 % of maximum
AAAAAAGGTAGTCACATTACGAGGGTAAAA | 15.3 % of maximum
AAAAAACTTCCCTCCTTGTCCTCCCCAAAA | 16.7 % of maximum
AAAAAAACGCTCAAGTCTATCAGTAGAAAA | 18.4 % of maximum

Other studies, line by line
Sequence | target | assay | system | setting | how to read | measurement | result
AGVKRKLFAEDSS | human cyclin A2 | peptide binding, competitive growth sequencing | peptide, Saccharomyces cerevisiae, cyclin A2-Cln2 fusion strain | concentration not given, single-residue mutant peptides | reference: unfused Cln2 strain, direction not given | median binding score | 6.47
